Assay results of several laboratories.
Parts stem from different laboratories: compare values within a part only. Values joined by “and” are separate records of one study, mostly repeats; a detail may differ.
UniProt P42336, sequence (whole entry, unmodified, looked up): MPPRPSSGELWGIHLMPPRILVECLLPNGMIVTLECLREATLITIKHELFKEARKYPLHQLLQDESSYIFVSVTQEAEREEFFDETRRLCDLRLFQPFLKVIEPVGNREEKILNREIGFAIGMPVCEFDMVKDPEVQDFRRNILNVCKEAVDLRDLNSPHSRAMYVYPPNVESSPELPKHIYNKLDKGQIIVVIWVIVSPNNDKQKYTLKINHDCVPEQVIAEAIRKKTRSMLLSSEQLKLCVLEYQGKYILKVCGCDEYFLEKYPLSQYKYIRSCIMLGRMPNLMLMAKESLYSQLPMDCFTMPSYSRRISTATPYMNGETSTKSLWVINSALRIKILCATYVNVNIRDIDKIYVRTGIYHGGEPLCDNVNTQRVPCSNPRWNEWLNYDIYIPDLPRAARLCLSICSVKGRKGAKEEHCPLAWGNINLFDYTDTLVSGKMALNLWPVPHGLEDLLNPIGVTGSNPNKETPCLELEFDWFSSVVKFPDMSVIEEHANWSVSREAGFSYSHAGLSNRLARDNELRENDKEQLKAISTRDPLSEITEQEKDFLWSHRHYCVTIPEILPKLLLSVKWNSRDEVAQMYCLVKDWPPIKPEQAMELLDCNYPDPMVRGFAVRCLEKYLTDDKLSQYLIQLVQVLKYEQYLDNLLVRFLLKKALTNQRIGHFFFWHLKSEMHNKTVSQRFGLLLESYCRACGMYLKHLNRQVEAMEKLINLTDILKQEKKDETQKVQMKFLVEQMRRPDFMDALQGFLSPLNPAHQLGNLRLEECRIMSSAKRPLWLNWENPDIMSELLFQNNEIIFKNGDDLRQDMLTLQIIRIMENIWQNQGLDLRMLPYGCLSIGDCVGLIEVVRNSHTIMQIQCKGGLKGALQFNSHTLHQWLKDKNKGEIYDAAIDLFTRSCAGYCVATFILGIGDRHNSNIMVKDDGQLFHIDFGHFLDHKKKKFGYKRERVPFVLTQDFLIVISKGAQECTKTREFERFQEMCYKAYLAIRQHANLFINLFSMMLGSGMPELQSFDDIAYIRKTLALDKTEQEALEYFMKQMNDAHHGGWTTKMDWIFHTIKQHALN
UniProt P54753, sequence (whole entry, looked up): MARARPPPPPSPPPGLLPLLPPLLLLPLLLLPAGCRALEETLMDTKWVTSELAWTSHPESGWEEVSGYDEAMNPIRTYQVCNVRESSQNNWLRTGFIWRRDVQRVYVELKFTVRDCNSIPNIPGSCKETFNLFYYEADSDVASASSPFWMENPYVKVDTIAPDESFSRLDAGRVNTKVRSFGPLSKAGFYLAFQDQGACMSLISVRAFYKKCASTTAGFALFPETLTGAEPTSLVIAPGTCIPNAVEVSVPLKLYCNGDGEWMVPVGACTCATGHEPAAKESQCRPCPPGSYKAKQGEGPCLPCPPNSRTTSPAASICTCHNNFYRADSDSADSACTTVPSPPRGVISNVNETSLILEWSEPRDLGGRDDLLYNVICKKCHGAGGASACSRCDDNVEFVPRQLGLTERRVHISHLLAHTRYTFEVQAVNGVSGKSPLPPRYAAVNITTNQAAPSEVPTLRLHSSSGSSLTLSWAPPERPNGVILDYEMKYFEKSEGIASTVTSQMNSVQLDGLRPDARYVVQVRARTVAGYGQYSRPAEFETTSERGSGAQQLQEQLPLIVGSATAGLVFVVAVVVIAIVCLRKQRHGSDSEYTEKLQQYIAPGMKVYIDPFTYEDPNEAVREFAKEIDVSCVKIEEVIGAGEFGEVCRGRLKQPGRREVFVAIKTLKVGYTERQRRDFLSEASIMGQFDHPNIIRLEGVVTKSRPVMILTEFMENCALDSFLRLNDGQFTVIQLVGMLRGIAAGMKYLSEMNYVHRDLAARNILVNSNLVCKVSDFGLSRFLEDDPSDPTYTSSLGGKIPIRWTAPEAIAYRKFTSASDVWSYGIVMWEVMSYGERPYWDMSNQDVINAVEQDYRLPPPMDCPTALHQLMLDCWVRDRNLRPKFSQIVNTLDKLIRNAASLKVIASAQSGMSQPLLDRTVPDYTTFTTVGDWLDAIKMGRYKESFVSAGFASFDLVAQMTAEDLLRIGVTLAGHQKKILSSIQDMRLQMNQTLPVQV
UniProt Q8IVH8, sequence (whole entry, looked up): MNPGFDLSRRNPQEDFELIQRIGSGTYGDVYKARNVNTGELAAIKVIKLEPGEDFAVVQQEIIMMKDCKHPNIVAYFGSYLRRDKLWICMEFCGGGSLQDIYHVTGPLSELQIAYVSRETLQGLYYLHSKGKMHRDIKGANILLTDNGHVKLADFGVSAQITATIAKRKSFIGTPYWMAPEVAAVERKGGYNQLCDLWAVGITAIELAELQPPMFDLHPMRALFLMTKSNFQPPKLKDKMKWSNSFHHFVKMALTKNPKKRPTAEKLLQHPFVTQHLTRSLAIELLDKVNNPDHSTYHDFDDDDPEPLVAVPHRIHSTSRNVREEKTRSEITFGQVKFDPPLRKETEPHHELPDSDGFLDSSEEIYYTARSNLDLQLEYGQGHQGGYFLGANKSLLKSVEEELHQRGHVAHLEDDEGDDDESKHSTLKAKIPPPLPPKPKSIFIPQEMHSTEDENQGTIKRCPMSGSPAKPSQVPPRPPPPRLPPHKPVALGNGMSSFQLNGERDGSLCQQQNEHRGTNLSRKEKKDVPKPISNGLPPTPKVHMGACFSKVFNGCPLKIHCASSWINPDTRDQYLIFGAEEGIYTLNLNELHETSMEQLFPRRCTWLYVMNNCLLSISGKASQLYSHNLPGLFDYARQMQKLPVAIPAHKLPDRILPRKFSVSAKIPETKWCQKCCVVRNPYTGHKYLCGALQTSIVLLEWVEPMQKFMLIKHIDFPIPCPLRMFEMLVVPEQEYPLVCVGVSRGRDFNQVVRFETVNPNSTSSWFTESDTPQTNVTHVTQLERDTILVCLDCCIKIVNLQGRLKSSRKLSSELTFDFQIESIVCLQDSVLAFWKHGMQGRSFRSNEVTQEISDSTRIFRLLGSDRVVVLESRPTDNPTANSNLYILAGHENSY
UniProt Q8TDX7, sequence (whole entry, looked up): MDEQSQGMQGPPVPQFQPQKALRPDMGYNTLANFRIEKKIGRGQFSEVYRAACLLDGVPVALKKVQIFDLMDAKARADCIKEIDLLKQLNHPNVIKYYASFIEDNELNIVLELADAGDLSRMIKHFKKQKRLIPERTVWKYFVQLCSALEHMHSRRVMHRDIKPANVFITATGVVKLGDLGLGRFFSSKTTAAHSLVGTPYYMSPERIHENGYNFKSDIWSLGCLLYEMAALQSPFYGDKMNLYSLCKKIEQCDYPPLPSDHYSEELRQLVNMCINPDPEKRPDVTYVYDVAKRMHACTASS
UniProt Q6DT37, sequence (whole entry, looked up): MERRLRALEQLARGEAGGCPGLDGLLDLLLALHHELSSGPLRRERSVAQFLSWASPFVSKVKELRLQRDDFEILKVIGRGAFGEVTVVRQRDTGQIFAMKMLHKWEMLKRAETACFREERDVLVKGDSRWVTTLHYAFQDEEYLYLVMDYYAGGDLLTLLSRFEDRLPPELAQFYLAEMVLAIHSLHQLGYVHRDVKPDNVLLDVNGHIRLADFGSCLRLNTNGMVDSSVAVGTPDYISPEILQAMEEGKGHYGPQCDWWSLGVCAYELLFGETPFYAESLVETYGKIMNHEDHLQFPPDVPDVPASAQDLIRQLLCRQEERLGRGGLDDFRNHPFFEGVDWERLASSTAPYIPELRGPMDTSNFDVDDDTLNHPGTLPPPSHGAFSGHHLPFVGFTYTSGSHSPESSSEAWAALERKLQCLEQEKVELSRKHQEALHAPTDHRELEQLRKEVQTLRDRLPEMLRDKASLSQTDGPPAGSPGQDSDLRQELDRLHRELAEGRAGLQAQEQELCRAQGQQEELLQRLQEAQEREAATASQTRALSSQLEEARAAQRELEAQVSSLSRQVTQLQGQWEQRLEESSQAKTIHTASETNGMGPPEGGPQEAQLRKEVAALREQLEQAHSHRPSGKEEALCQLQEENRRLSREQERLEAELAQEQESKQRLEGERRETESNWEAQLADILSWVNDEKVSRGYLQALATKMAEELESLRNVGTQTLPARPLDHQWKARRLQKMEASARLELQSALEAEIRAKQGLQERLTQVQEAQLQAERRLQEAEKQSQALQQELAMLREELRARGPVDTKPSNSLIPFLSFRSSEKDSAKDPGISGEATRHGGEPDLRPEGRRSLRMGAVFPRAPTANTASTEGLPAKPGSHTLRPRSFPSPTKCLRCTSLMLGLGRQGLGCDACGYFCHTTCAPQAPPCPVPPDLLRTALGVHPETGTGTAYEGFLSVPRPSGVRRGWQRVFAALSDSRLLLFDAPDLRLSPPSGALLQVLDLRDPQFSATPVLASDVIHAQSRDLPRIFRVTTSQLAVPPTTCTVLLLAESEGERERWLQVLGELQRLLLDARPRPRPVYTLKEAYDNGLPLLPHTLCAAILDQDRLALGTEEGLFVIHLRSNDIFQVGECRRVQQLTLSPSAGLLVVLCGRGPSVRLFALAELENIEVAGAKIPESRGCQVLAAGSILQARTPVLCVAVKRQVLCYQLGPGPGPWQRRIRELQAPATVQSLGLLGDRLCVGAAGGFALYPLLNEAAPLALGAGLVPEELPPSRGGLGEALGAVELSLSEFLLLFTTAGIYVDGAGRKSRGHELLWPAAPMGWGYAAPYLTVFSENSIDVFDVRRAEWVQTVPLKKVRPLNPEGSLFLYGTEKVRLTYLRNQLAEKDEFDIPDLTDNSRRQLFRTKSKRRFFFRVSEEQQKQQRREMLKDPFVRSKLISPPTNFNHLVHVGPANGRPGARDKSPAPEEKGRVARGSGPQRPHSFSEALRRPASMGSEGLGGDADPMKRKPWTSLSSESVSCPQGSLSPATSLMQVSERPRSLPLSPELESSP

Series 1
Cell line: A-375
Concentration: 100 µM
Time: 36 h
| SMILES | viability |
| --- | --- |
| Cc1cnc(C(=O)O)c[n+]1[O-] | 78% |
| C[C@H](Cc1cc2c(c(C(N)=O)c1)N(CCCO)CC2)NCCOc1ccccc1OCC(F)(F)F | 76.8% |
| Cc1c(N(C)C)c(=O)n(-c2ccccc2)n1C | 113% |

Series 2
Compound: CN(C)C(=O)Cn1cc(-c2nc([C@@](C)(c3ccc(-c4cnc(N)nc4)cc3)C3CC3)no2)cn1
Concentration: 1 µM
| target | test | remaining binding [%] |
| --- | --- | --- |
| MAP3K7 (Homo sapiens, UniProt O43318) | cell-free assay, competition with immobilised ligand | 50 |
| BUB1 (Homo sapiens, UniProt O43683) | cell-free assay, competition with immobilised ligand | 75 |
| PNCK (Homo sapiens, UniProt Q6P2M8) | cell-free assay, competition with immobilised ligand | 88 |
| PIP5K1A (Homo sapiens, UniProt Q99755) | cell-free assay, competition with immobilised ligand | 90 |
| EPHB3 (Homo sapiens, UniProt P54753) | cell-free assay, competition with immobilised ligand | 100 |
| TEC (Homo sapiens, UniProt P42680) | binding, competition with immobilised ligand | 93 |
| ANKK1 (Homo sapiens, UniProt Q8NFD2) | cell-free assay, competition with immobilised ligand | 81 |
| PTK6 (Homo sapiens, UniProt Q13882) | cell-free assay, competition with immobilised ligand | 100 |
| GRK2 (Homo sapiens, UniProt P25098) | cell-free assay, competition with immobilised ligand | 78 |
| STK24 (Homo sapiens, UniProt Q9Y6E0) | cell-free assay, competition with immobilised ligand | 100 |
| PIK3CA (Homo sapiens, UniProt P42336, H1047L) | cell-free assay, competition with immobilised ligand | 100 |
| PRPF4B (Homo sapiens, UniProt Q13523) | cell-free assay, competition with immobilised ligand | 86 |
| MAP4K3 (Homo sapiens, UniProt Q8IVH8) | cell-free assay, competition with immobilised ligand | 100 |
| Tyrosine-protein kinase ABL1, phosphorylated (ABL1, Homo sapiens, UniProt P00519, F317I) | binding | 100 |
| PIK3CA (Homo sapiens, UniProt P42336, E545A) | cell-free assay, competition with immobilised ligand | 75 |
| PLK3 (Homo sapiens, UniProt Q9H4B4) | cell-free assay, competition with immobilised ligand | 89 |
| CDK9 (Homo sapiens, UniProt P50750) | cell-free assay, competition with immobilised ligand | 96 |
| LIM domain kinase 1 (LIMK1, Homo sapiens, UniProt P53667) | cell-free assay, competition with immobilised ligand | 81 |

Series 3
Species: human
Medium: microsomes or S9
Concentration: 2 µM
Time: 0.5 h
| SMILES | remaining compound [%] |
| --- | --- |
| Cc1c(C(=O)O)nnn1-c1cccc2cnccc12 | > 100 |
| CCN1C(=O)CCN(S(=O)(=O)c2cn(C)cn2)CC12CCOCC2 | > 100 |
| CCc1nn2c(nnc3c(=O)n(NC(=O)c4ccccc4C)ccc32)c1-c1ccccc1 | > 99.9 |

Series 4
Organism: Sarcocystis neurona
Read-out: parasite growth
Concentration: 10 µM
Notes: secondary screen
| Compound | inhibition [%] |
| --- | --- |
| C=CC[C@@H]1/C=C(\C)C[C@H](C)C[C@H](OC)[C@H]2O[C@@](O)(C(=O)C(=O)N3CCCC[C@H]3C(=O)O[C@H](/C(C)=C/[C@@H]3CC[C@@H](O)[C@H](OC)C3)[C@H](C)[C@@H](O)CC1=O)[C@H](C)C[C@@H]2OC | 10.3 |
| CN(CCOc1ccc(CC2SC(=O)NC2=O)cc1)c1ccccn1 (stereo not drawn) | 8.4 |
| NCc1ccc(S(N)(=O)=O)cc1 | -45.7 |
| CN1C(=O)CC[C@H]1c1cccnc1 | -38.5 |

Series 5
Structure (SMILES): Cc1ccc(NC(=O)c2ccnc(C(F)(F)F)c2)cc1-c1cc(OCCO)nc(N2CCOCC2)c1
| target | test | setting | remaining binding [%] |
| --- | --- | --- | --- |
| PIK3CA (Homo sapiens, UniProt P42336, E545A) | binding | 1 µM | 88 |
| CDC42BPG (Homo sapiens, UniProt Q6DT37) | DiscoverX cell-free binding | 1000 nM | 81 |
| NEK7 (Homo sapiens, UniProt Q8TDX7) | binding | 1 µM | 100 |

Single results of other studies
| SMILES | target or system | test | system | setting | how to read | measurement | value |
| --- | --- | --- | --- | --- | --- | --- | --- |
| Cc1cc(C)cc(C(=O)NOCCCCCC(=O)NO)c1 | mouse MPNST tumor cells | high-content nuclear imaging, refers to: cell number | – | 10 µM, 12 h, mean of 2 replicates | relative to: plate mean, higher = more cells | nuclei count | -0.614 z-score |
| CC1=C(/C=C/C(C)=C/C=C/C(C)=C/C(=O)O)C(C)(C)CCC1 | – | – | NSG mouse, HuT78 xenograft | dose not given, end of study | – | tumour weight | 0.606 g and 0.75 g and 0.64 g and 0.649 g and 0.565 g |
| COc1cc(C(=O)OCCCN2CCCN(CCCOC(=O)c3cc(OC)c(OC)c(OC)c3)CC2)cc(OC)c1OC | mouse MPNST tumor cells | high-content nuclear imaging, refers to: cell number | – | 10 µM, 12 h, mean of 2 replicates | relative to: plate mean, higher = more cells | nuclei count | -3.55 z-score |
| CN(C(=O)c1ccn2ncc(-c3ccc(C(N)=O)cc3)c2c1)c1ccc(C#N)cn1 | Cryptosporidium parvum | qPCR | IFN-γ knockout mice | intravenous, 1 mg/kg | – | faecal oocyst shedding | 6.85 log oocysts/g faeces and 6.92 log oocysts/g faeces and 6.94 log oocysts/g faeces |
| CO[C@@H]1[C@H](O)[C@@H](CO)O[C@H]1n1cnc2c(NC3CCCCC3)ncnc21 | mouse MPNST tumor cells | high-content nuclear imaging, refers to: cell number | – | 10 µM, 12 h, mean of 2 replicates | relative to: plate mean, higher = more cells | nuclei count | 1.27 z-score |

For quick reference, copied from above (single results of other studies):
| SMILES | target or system | test | system | setting | how to read | measurement | value |
| --- | --- | --- | --- | --- | --- | --- | --- |
| COc1cc(C(=O)OCCCN2CCCN(CCCOC(=O)c3cc(OC)c(OC)c(OC)c3)CC2)cc(OC)c1OC | mouse MPNST tumor cells | high-content nuclear imaging, refers to: cell number | – | 10 µM, 12 h, mean of 2 replicates | relative to: plate mean, higher = more cells | nuclei count | -3.55 z-score |
| CN(C(=O)c1ccn2ncc(-c3ccc(C(N)=O)cc3)c2c1)c1ccc(C#N)cn1 | Cryptosporidium parvum | qPCR | IFN-γ knockout mice | intravenous, 1 mg/kg | – | faecal oocyst shedding | 6.85 log oocysts/g faeces and 6.92 log oocysts/g faeces and 6.94 log oocysts/g faeces |
| Cc1cc(C)cc(C(=O)NOCCCCCC(=O)NO)c1 | mouse MPNST tumor cells | high-content nuclear imaging, refers to: cell number | – | 10 µM, 12 h, mean of 2 replicates | relative to: plate mean, higher = more cells | nuclei count | -0.614 z-score |
| CC1=C(/C=C/C(C)=C/C=C/C(C)=C/C(=O)O)C(C)(C)CCC1 | – | – | NSG mouse, HuT78 xenograft | dose not given, end of study | – | tumour weight | 0.606 g and 0.75 g and 0.64 g and 0.649 g and 0.565 g |
| CO[C@@H]1[C@H](O)[C@@H](CO)O[C@H]1n1cnc2c(NC3CCCCC3)ncnc21 | mouse MPNST tumor cells | high-content nuclear imaging, refers to: cell number | – | 10 µM, 12 h, mean of 2 replicates | relative to: plate mean, higher = more cells | nuclei count | 1.27 z-score |
